# Results pooled from the literature.
# Each numbered part is a random draw from the data of one study; scales do not carry over between parts.

# Series 1 — technique: universal PBM; form: double-stranded DNA, one strand shown; matrix: in vitro; concentration: not given; reading: higher = stronger binding
# Target: Sal-like protein 4, full length isoform B (SALL4, Homo sapiens, UniProt Q9UJQ4-2, residues 1-616)
# Notes: 8-mer, flanks averaged, mean of replicates
Oligonucleotide,E-score
CGCTAGTC,-0.226
ATCGTCTC,0.0421
ACTCGAAT,0.0339
AGTCTTGC,0.0522
CGGATGCC,-0.114
GAACCAGA,-0.0534
CCCCCAGC,-0.276
GGGTTCAC,-0.209
AGGTGCGA,-0.225
CGTAGTTC,-0.137
CGGTGGGA,-0.318
ACCGGCGG,-0.29
AATCTTTA,0.263
AACTAGAG,0.0262
GTAAGTTA,0.161
TGAAAGCA,0.13
CAGTGCAC,-0.217
AAGAATAT,0.285
GACGGGAC,-0.281
AATGCATT,0.305
GAGGTGGA,-0.199
ACATTCCC,0.0835
AAACAGAG,-0.0371
GACTCACA,-0.0306

# Series 2 — technique: protein binding microarray; form: double-stranded DNA, one strand shown; matrix: in vitro; concentration: not given; relative to: not given; reading: higher = stronger binding
# Target: Histone acetyltransferase KAT6A, winged helix 1, GST fusion (KAT6A, Homo sapiens, UniProt Q92794, residues 1-85)
# Notes: 8-mer, flanks averaged, mean of 2 arrays, mostly near background
# Construct (chain): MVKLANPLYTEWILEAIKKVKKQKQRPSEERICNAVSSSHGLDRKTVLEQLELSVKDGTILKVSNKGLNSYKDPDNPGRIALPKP
Oligonucleotide,E-score
AGGCTTTA,-0.143
CACAAGCA,-0.349
ATGCCAAG,-0.255
GTTGAAAA,-0.207
AAGCACTG,-0.204
CCTGGCGC,0.29
ACTTGGAA,-0.23
CAGTTGGC,-0.0695
CCAGCCCA,-0.17
ACGAGGCA,-0.178
AGCGTTCA,0.032
AGGCGCTC,0.224
CTGCTGTA,-0.171
CACGGGCA,0.238
AGACCTGG,-0.0324
CGGGTACC,0.305
CAGGCTGG,-0.154
GGGTGGAC,-0.0884
CGTAAAAA,-0.0337
CCCGTGGA,0.239
GACTTTGC,0.0373
CGTAGAGA,-0.0334
ACGGGTAG,0.294
ATTAGTAC,-0.0682
TCGTCGCA,0.0247

# Series 3 — technique: protein-binding microarray; form: double-stranded DNA, one strand shown; matrix: in vitro; concentration: not given; reading: higher = stronger binding
# Target: Transcription factor Sp1 (SP1, Homo sapiens, UniProt P08047, residues 1-785, full length assumed)
# UniProt P08047, sequence (whole entry, looked up): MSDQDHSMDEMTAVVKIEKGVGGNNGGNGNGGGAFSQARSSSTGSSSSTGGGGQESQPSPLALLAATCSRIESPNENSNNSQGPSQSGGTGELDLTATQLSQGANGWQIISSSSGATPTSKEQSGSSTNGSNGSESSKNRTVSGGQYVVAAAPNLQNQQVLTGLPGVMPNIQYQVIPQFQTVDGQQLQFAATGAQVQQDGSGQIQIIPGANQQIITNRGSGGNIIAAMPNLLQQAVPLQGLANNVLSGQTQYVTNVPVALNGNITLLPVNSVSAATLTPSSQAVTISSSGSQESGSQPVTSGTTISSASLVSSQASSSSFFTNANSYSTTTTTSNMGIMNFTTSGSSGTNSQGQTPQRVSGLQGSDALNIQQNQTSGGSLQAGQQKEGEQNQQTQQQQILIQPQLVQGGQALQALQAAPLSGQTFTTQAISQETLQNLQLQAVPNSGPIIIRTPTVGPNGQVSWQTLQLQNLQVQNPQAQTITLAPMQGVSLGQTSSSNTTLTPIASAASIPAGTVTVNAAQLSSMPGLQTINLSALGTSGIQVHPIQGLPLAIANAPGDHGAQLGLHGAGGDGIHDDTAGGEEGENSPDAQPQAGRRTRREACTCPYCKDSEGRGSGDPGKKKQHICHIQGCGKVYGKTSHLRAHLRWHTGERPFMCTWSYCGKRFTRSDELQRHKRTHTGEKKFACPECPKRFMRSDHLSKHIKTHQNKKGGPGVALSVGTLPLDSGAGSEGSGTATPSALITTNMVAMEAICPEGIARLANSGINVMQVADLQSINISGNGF
# Notes: k-mer, scored over probes, only values ≥0.25
Oligonucleotide,E-score
ACAAACAC,0.277
TAATGACA,0.252
CTATGCAC,0.252
CCCACCGA,0.283
ACGCCCCA,0.372
GTACTATA,0.29
TACTATAA,0.264
CCCACCAA,0.273
GCGGGGAA,0.265
CAACCCAC,0.253
AGGGGTCG,0.276
TTATATAA,0.276
CCTCCCTC,0.422
ATGAGGGG,0.323
ACAACCCC,0.303
CCCCTTCA,0.328
AACCCCTA,0.275
ACCCATAT,0.321
CCCCACCG,0.252
AAGGGGTA,0.265
AGCCCCGC,0.26
ATACCACC,0.306
ATGGGTGG,0.325
CACCCCCC,0.314
GTTATATA,0.315

# Series 4 — technique: RNAcompete; form: RNA; matrix: in vitro; concentration: 20 nM; notes: 7-mer, probes averaged, single round; relative to: mean of 7-mers; reading: higher = stronger binding
# Target: PABPC1L2, full length, GST fusion (mouse, UniProt A0ABA7IW68)
# Construct (chain): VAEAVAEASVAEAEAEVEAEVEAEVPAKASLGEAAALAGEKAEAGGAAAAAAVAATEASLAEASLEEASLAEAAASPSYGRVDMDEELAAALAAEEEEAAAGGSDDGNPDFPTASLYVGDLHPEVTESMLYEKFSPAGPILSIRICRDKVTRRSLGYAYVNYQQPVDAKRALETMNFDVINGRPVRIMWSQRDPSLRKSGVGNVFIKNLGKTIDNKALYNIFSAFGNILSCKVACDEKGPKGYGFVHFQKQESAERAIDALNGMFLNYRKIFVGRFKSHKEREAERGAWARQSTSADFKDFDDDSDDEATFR
Oligonucleotide,7-mer Z-score
UAGAUGU,-0.0464
AAAACCG,2.92
UAUAGUC,-0.307
UACAUUA,-0.103
GAGAGCC,-0.0844
GAGAGCA,0.149
GAACUAU,-0.141
AAGUCCC,0.0116
GUUUAUA,-0.237
CAACUUC,-0.211
UGCCGGA,0.0388
CAAUAUU,-0.106
GGACGAG,0.0478
UAGCCUC,-0.262
ACUAACU,-0.0246
CGGCCUG,-0.394
UCCUACC,-0.325
AAAGUAG,1.88
AUAAAAU,4.86
UAUUGGU,-0.159
ACUGGCU,-0.0826
UGAUCCA,-0.0863
AUUUUCC,-0.356
AAGGUUU,-0.224
CCAACGG,-0.0681

# Series 5 — technique: protein-binding microarray; form: double-stranded DNA, one strand shown; matrix: in vitro; concentration: 2540 nM top; notes: 60-bp whole probe; added: salmon DNA 0.4 mg/ml; relative to: random background probes; reading: higher = stronger binding; shared flanks, not repeated: GCCTAGCAC … GTCTTGATTCGCTTGACGCTGCTG
# Target: Interferon regulatory factor 3, full length, phosphomimetic (IRF3, Homo sapiens, UniProt Q14653, residues 1-427, S386D/S396D/S398D/S402D/T404D/S405D)
# Target sequence (chain): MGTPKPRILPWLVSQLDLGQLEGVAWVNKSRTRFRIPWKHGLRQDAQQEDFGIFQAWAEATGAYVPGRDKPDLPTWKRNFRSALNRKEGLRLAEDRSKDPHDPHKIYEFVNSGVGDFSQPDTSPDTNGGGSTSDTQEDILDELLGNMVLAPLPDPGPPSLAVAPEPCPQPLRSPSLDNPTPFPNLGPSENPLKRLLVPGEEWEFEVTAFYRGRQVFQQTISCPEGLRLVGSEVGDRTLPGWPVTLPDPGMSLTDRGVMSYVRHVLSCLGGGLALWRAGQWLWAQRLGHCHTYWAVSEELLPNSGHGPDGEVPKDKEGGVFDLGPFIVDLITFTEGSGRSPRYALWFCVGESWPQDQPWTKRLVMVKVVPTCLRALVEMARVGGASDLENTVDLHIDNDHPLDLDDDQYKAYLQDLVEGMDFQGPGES
Oligonucleotide,fitted relative affinity [z-score]
GACGATATCGGGACTGGAGAGGTGCTA,0.124
TTAGAACTGAGTCTCGTTTAGTGCTAG,-0.265
GAAGGTATCCTTCTCCTGACGTGCTAG,7.06
GACGGTATCCTACTGCTGGCGTGCTAG,2.73
GACGGTTTCGGGACTGGTGACGTGCTA,4.76
GACGGTTCCGGTCTCGGGACGTGCTAG,3.5
GACGGTTTCGACACAGGGGACGTGCTA,2.95
GCCGGTTTCGGTTTCGGGACGTGCTAG,11.1
TCAGTTCTCTTTTATTTACTGTGCTAG,3.49
TCAGATCTGCCGTCCCACACTGTGCTA,0.482
TTAGAGATCAGTTTCGATTAGTGCTAG,4.64
TTAGGTGTCGACACTGGGTTAGTGCTA,0.491
GCACTTTTCCCCCTAGTTGTGTGCTAG,2.14
GACGATACCGGGTATCGAGACGTGCTA,0.0473
TCATGTTGTTTTTTGGTACTGTGCTAG,0.432
TTAGGTTGCGGTTCCGGTTAGTGCTAG,6.31
GACAGACTGCTTATCCTGACGTGCTAG,-0.159
AACGGACTGGACTTTCGGGACGTGCTA,0.0614
TCAGTACTTTCTATCTCACTGTGCTAG,2.64
TTAGGTTTCGTCTTTCGGTTAGTGCTA,3.85
TCAGATTTTGTCCTCCCACTGTGCTAG,0.258
GACGATATCTGGACTGGAGACGTGCTA,-0.124
TTACGTATCGGGTTTCGGTTAGTGCTA,3.93
TGAAGACTTTCTTTCAAATGGTGCTAG,0.497
GACTATCTCAGTTTCGAGACGTGCTAG,2.72
